Published values collected from several papers.
Parts stem from different laboratories: compare values within a part only. Substitutions count along the parent as printed.

Study 1
Target: Sal-like protein 4, full length isoform A (SALL4, Homo sapiens, UniProt Q9UJQ4, residues 1-1053)
Sequence of UniProt Q9UJQ4 (whole entry, looked up): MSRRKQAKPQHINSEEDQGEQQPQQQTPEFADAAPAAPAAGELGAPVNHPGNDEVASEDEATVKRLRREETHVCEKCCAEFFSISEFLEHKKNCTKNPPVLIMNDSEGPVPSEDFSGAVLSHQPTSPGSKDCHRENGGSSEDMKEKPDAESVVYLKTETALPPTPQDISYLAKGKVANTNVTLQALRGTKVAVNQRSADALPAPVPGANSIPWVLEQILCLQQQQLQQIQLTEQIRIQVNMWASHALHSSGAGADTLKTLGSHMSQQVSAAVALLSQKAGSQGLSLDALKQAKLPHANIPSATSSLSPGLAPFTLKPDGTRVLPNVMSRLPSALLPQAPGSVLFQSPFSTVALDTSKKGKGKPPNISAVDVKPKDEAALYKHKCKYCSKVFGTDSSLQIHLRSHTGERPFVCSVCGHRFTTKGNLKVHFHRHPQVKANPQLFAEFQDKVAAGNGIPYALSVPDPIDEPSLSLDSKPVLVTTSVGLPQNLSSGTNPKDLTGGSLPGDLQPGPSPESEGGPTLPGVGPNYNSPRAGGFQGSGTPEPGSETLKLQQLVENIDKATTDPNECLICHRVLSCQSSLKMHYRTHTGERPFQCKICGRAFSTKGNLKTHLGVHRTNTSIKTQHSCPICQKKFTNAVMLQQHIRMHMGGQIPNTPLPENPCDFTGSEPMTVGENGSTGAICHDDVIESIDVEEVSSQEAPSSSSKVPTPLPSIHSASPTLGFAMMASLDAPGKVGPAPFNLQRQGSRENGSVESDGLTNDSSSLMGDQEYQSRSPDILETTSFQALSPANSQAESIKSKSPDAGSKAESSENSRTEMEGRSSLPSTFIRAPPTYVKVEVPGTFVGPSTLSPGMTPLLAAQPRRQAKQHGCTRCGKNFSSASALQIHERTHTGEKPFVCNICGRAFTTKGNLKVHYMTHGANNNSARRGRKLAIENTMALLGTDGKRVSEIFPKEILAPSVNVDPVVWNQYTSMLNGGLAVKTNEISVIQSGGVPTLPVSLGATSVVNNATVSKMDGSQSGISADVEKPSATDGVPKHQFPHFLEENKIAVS
Method: universal PBM
Form: double-stranded DNA, one strand shown
Sample: in vitro
Tested at: 600 nM
Setting: 8-mer, flanks averaged, mean of replicates
Reading: higher = stronger binding
`CAACTTGG` gave an E-score of -0.14.
`ATCTCTTG` gave an E-score of -0.0283.
`AACGATTA` gave an E-score of 0.12.
With `AGTACGAT` the E-score was 0.194.
For `ACAATCAC`, the E-score was 0.112.
The E-score of `GAATCGAC` is reported as -0.0522.
`CTCATTTC` has an E-score of 0.148.
`ACCCGGCG` gave an E-score of -0.383.
With `CCGGATGC` the E-score was -0.391.
`ATCGGCTC` has an E-score of -0.248.
With `CAGGGGGC` the E-score was -0.339.
`CTCTAGCC` has an E-score of -0.135.
For `AGAGATTG`, the E-score was 0.12.
With `CGAGGCAG` the E-score was -0.203.
`AGTTAGTA` has an E-score of 0.132.
For `CCTCCAAC`, the E-score was -0.122.
`CACAGGAC` has an E-score of -0.146.
The E-score of `AACTCGAT` is reported as 0.118.
The E-score of `CTAGCCAA` is reported as -0.0416.
For `ACTCACAG`, the E-score was -0.0267.

Study 2
Target: Ras GTPase-activating protein-binding protein 1, full length (G3BP1, Homo sapiens, UniProt Q13283)
Sequence of UniProt Q13283 (whole entry, looked up): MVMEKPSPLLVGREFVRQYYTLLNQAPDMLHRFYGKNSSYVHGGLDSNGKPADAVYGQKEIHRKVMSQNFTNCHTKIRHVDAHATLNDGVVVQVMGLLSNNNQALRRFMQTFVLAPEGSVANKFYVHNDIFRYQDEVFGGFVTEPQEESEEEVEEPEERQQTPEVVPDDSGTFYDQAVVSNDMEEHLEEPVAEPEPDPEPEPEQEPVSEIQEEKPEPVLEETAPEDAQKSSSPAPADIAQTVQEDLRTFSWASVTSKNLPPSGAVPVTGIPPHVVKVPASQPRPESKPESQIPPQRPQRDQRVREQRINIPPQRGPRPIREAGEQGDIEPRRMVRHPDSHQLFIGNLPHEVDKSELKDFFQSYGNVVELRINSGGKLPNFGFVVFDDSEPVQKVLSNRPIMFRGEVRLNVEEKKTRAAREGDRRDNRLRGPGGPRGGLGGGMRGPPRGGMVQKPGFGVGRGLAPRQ
Method: RNA Bind-n-Seq
Form: RNA
Sample: in vitro
Tested at: 200 nM
Setting: whole 134-nt RNA, ends assumed
Together with: 150 mM KCl
Baseline: input library
Reading: higher = stronger binding
Constant ends, left off below: GGGAGUUCUACAGUCCGACGAUC … UGGAAUUCUCGGGUGUCAAGG
For `AAGUCCUGUGCUACACAUCGUAUGUACCGAAUCGGUUUUGGGUUUUGGGUUUUGGGAAAGUAUUAUGUUACGCCGUUCGGAUCUGCACUU`, the log2 enrichment was -0.923.
The log2 enrichment of `UCAAGUCCUGUGCUACACAUCGUAUGUACCGAAUCGGGAAAGGAAAGGGAAAGGAAAGUAUUAUGUUACGCCGUUCGGAUCUGCACUUCC` is reported as -0.844.
For `AAGUCCUGUGCUACACAUCGUAUGUACCGAAUCGGGCCCCGGGCCCCGGCCCCGGGAAAGUAUUAUGUUACGCCGUUCGGAUCUGCACUU`, the log2 enrichment was -1.18.
`UCCUGUGCUACACAUCGUAUGUACCGAAUCGGAAAAAAAGGAAAAAAAGGUUUUUUUGGAAAGUAUUAUGUUACGCCGUUCGGAUCUGCA` gave a log2 enrichment of -0.791.
`UUUGACGCGGUGUGUUACGUGGGGGAGAGAAUAAAACUCCAGCGAGAUCCGGGCCGUGAACGAAAGCAGUGACGGAGGAGCUUGUACCAC` has a log2 enrichment of 0.556.
`GCAGGAAGUAAAAACAAAUGGAAAUGCUUCUGAUAGUGGCAGGGGUGGGGGUUGCUAAGGAAAGGGUGGGAUGGGAGUGGGUAAAGAGUU` has a log2 enrichment of 1.13.
`GGUUUCUGGUGAGCUUCAUGGUUGACGCCCGGGGUGGUUCCAUGAGAGGAAGUCGCCACAACGGCCUGCGAGUGGUGAUCCCGCCACGGA` gave a log2 enrichment of -1.73.
`ACCAUGCAGGUGGGCAUCUUUGGGAAGUGGGGCAAGGGAGGGAUAGGGAGGGGGGUAACACUUUGGGAACAGGUGGUCCCAGGUCGUUUC` has a log2 enrichment of 1.29.
`CUCAAGUCCUGUGCUACACAUCGUAUGUACCGAAUCGGAGGUUUUUGGUUUGGAAAGUAUUAUGUUACGCCGUUCGGAUCUGCACUUCCA` has a log2 enrichment of -0.728.
The log2 enrichment of `CAAGUCCUGUGCUACACAUCGUAUGUACCGAAUCGGGGAAAGGGAAAGGGAAAGGGAAAGUAUUAUGUUACGCCGUUCGGAUCUGCACUU` is reported as 0.556.
`CUGUGCUACACAUCGUAUGUACCGAAUCGGGGCCCCCCGGGGCCCCCCGGGCCCCCCGGGGAAAGUAUUAUGUUACGCCGUUCGGAUCUG` gave a log2 enrichment of -1.01.
`CACAGACAACACGCACCCACACAGACACAGAGGGAAGGGGUUGGGAUGGGGACAGGGUGCACAGCAGGGCGGCGUAGGACCCCAGCCCCU` gave a log2 enrichment of 1.9.
For `CUGUGCUACACAUCGUAUGUACCGAAUCGGGGAAAAAAGGGAAAAAAGGGGAAAAAAGGGGAAAGUAUUAUGUUACGCCGUUCGGAUCUG`, the log2 enrichment was -0.214.
With `UUAAAGAAGAGGGUGUGCGGGACGUCCUUAAGGAUGUACUGCUCCCAUGGUACAAUGCCUAUCGCUUCUUAAUCCAGAACGUUCUGAGGC` the log2 enrichment was -1.37.

Study 3
Target: RING finger protein unkempt homolog, zinc fingers 1-6, GST-SBP tag (UNK, Homo sapiens, UniProt Q9C0B0, residues 30-357)
Sequence of UniProt Q9C0B0 (30-357, looked up): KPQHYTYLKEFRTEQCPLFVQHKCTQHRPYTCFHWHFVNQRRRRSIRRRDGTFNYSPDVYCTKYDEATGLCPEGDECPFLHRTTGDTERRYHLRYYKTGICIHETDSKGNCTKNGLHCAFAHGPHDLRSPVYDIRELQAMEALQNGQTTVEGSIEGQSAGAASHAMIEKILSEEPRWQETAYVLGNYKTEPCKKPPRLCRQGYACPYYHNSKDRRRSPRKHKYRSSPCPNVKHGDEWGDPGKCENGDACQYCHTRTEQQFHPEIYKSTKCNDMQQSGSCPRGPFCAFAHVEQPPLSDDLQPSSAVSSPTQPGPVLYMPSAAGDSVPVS
Method: RNA Bind-n-Seq
Form: RNA
Sample: in vitro
Tested at: not given
Setting: RNA with constant flanks, human-mouse chimeric sites, ends assumed
Baseline: input RNA pool
Reading: higher = stronger binding
Constant ends, left off below: GGGAGUUCUACAGUCCGACGAUC … CAACAGAGGAUUGAGCAUCA
`UUCAAAGAAAAGGGCAGCUGUGUCAUUUCAUAAGUAACUCUGGGGGAUAAGUGGAAGGUUCUUUUGUUUUUAGUUUUCCCAAAUGAAGCCAAAGUGUGUGUUGAAGAACUGAGAAAAAAU` gave a bound/input enrichment of 0.198 ratio.
`AAAGAACCUCUCUCUGAUGAAGAUGAGGAAGACAAUGAUGAUGUUGAACCCAUUUCUGAAUUUAGAUUUGUGCCCAGUGAUAAGUCAGCAUUGGAGGCGAUGUUCACUGCAAUGUGCGAG` gave a bound/input enrichment of 2.59 ratio.
The bound/input enrichment of `CCCCAAUACCAUUUGCAAGAGUUGGAAUGCACUCUCUUUUUUAAAAAACAUGUAUACAUUUUAGGGCUGUAGACUUAUUUUCCUGGUUUUGUUUUUCAUUGCUGACUUUUGAGCACAGAA` is reported as 1.19 ratio.
`ACCAUUUUCGCGGUUCAAGGUUUUGUGGUAGUUCACUUACGGUAUUAAAUUAUUAUUGCCCUUAGUUUAUAAUAAGGAUAAUUGCAUUUAAAGAGGUUACUGAAUGUUACUCUGAAACUU` has a bound/input enrichment of 0.487 ratio.
`GGCUGCUACUAUUCUCCCUGGAGUGGCUGGAGUUCCCGCCGGAGCGCGGCCAGACUAAUUUUAGAAAAUGCCAAGUAGGAAAUUUGCUGAGGGUGAAGUGGUCAGAGGCCGAUGGCCUGG` gave a bound/input enrichment of 5.41 ratio.
`UUACCCGAAAAUGAAGAUGAGCUGGAGAGCACCAACAGGCGCUACACCAAGAGGGACUGCAGCACUUUCCUCAGAACUAGUGAGACGGGCAUCGUGGACCAGGUCAUGGUAACUCUCAAC` gave a bound/input enrichment of 0.148 ratio.
With `AGAAUCUUGGGACUGUUUUACUUAAUUGGUCAUUGGUAGCUUAACAAACAUGGAGAUAAGAUUAGAAAUCUUGACAUCAACAAGUAUUAAGCAGAAAAAACCAUGGCCACGUGUCUCCUG` the bound/input enrichment was 0.119 ratio.
`AAAGAACCUCUCUCUGAUGAAGAUGAGGAAGACAAUGAUGAUGUUGAACCCAUUUCUGAAUUUAGAUUUGUGCCCAGUGAUAAGUCAGCGUUGGAGGCGAUGUUCACAGCAAUGUGUGAG` gave a bound/input enrichment of 0.71 ratio.

Study 4
Target: RNA binding protein fox-1 homolog 2, RRM domain, GST-SBP tag (RBFOX2, Homo sapiens, UniProt O43251-10, residues 100-194)
Method: RNA Bind-n-Seq
Form: RNA
Sample: in vitro
Tested at: 365 nM
Setting: natural RNA segment, single round, ends assumed
Baseline: no-protein control
Reading: higher = stronger binding
Constant ends, left off below: GGGAGUUCUACAGUCCGACGAUC … UGGAAUUCUCGGGUGCCAA
Target sequence (chain): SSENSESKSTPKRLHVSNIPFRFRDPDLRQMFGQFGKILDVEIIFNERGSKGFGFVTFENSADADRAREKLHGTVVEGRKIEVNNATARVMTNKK
`CUAAUUCAUUGCAGUUCAUACUUAUUGACUCAGAGUUUAAAACCACAAUCUGUAGGCUUUAAGAAUUGCUUUUAAACCUUUUUAAGUGAUAAACUCUUGAAGUGGUCUUA`: “RBNS enrichment (R)” 0.477.
Under “RBNS enrichment (R)”, `CUAAGAGCCACCUGCUGCAGUUACCAUGGCAUGCUGAGUUGAUGCACCAGGUGGCAGCAGCCAUCCGUUAUUAUUUCCAAUGGAGACCUAGCCCAGGCCAAGGUAAAGUU` is recorded as 23.5.
For `AGGACAAGAGAGUAGGCAGGCUUACAGGUGCAGACUGAGUGCUUCUCCGCCUGCCCUCUUCCCCUUGUUUCCUUGGGUGAGUGUGGGGGGCAGCCUGCUGUCCCUCCCAC`, “RBNS enrichment (R)” read 0.183.
`UGUCGACCUGGAUGAGGUCGCCUAUUUCACCUGGGCUUCCUGACCCAGCUCAGAACCUAGGAAUCCCACAGCCCUAACCCCAGCCUUCAUACAGACUUUUAAUCCUCUAC`: “RBNS enrichment (R)” 0.346.
Under “RBNS enrichment (R)”, `CUGUUUUGCAUAAUGAACAUUUUUAUUGGGCAUUCAAAGGGUGCAAGAUUGUCUGCUUACUCAUUUUUAAAAAUUAAAGAAAUGAACAAUCAGUGUGGCUAUUCCUAGCA` is recorded as 3.42.
`UGUGAAUUGCUUGGUUGUAAUUAAAUUCUGAGCCUGAUAUUGAUAUGGUUUUAAGAAGCAGUUGUACCAAGUGAAAUUAUUUUGGAGAUUAUAAUAAAUAUAUACAUUCA`: “RBNS enrichment (R)” 0.696.
`UGAUCAUAUAUGCAUACGUUUCUUUACAGCAGAGGAAACCAUUGUCCACAAAACUGAUGUUCUUUUGGGGUUUUAUGUACAGACUUGUCCAAUCAUGUGUGUGGUUCCUG` — result for “RBNS enrichment (R)”: 0.444.
`GACUCCUGUACUAUUAACAAUCUGUAACCAAGCUAACUGUCUCAUCCAUGUGUUGAUUUCCUGUUUCCUCCUCCCCCGCCUCUUCCAGUUCAAAGGAGUCUGCAAUUGGA` — result for “RBNS enrichment (R)”: 1.19.
`ACAGCCCUCCCGCCCCUUCCCCGAGGGAUGAUGCCACACCAAGCUGUGCCACCCUGGGCUCUGUGGGCUGCACUCUGUGCCCAUGGGCACUGCUGGGUGGCCCAUCCCCC`: “RBNS enrichment (R)” 0.318.
`AGGGUAAGCUAACUGAAUGCCUUGAAAAUAUUAUCCACUGGUCGGUCAUAUGGGAGACUUGUUUCAGUAUUAUUUAUAGUUGCACUUGAUUACCGUUCUCUGAGGCACUG` — result for “RBNS enrichment (R)”: 1.33.
`CCCAUCUCCUCAACCACCAGGGUCUGAGUUCUAGCAGGGUCCUGGGGGUAUCCCACUGCUAUACUGUUCUACUGCUUCCCUCAGUAUCUGAAUGUCUCAAUUUAAAACUU`: “RBNS enrichment (R)” 0.711.
Under “RBNS enrichment (R)”, `AUCGAGUAUUCUUUAUAUUCAGUUCCUAUUUAAGUCAUUUUUGUCAUGUCCGCCUAAUUGAUGUAGUAUGAAACCCUGCAUCUUUAAGGAAAAGAUUAAAAUAGUAAAAU` is recorded as 1.27.

Study 5
Target: CCNB1, cyclin fold, Cln2 fusion (human)
Method: yeast growth competition, sequencing
Sample: yeast
Setting: strong parent motif
Baseline: not given
Reading: higher = stronger binding
Parent: RBL2 docking peptide (human); STTRRRLFVENDS
`LTTRRRLFVENDS [S1L]`: “normalised enrichment score” 1.82.
Under “normalised enrichment score”, `SMTRRRLFVENDS [T2M]` is recorded as 1.37.
`STTRRRLNVENDS [F8N]`: “normalised enrichment score” 0.0207.
`STTRRRLFVECDS [N11C]` — result for “normalised enrichment score”: 1.32.
For `STTNRRLFVENDS [R4N]`, “normalised enrichment score” read 0.552.
For `STTRRRLFAENDS [V9A]`, “normalised enrichment score” read 1.26.
`STTRRRLFVENDE [S13E]`: “normalised enrichment score” 1.59.
For `STHRRRLFVENDS [T3H]`, “normalised enrichment score” read 0.0626.
`CTTRRRLFVENDS [S1C]`: “normalised enrichment score” 1.76.
`STTRRRLFRENDS [V9R]` — result for “normalised enrichment score”: 0.454.
Under “normalised enrichment score”, `STTRRTLFVENDS [R6T]` is recorded as -0.0482.
`STTRRRLFVENGS [D12G]` — result for “normalised enrichment score”: 1.73.
`STARRRLFVENDS [T3A]` — result for “normalised enrichment score”: 0.734.
Under “normalised enrichment score”, `STTRRRLFVYNDS [E10Y]` is recorded as 0.382.
Under “normalised enrichment score”, `STTRRRLKVENDS [F8K]` is recorded as 0.797.
Under “normalised enrichment score”, `STTRMRLFVENDS [R5M]` is recorded as 1.06.
`STTRRRLFVESDS [N11S]` — result for “normalised enrichment score”: 0.876.
